Measured values gathered from unrelated publications.
Each numbered part is a random draw from the data of one study; scales do not carry over between parts. Several values in a cell are separate wells, animals, samples, runs or records.
Sequence of UniProt Q9Y616 (whole entry, looked up): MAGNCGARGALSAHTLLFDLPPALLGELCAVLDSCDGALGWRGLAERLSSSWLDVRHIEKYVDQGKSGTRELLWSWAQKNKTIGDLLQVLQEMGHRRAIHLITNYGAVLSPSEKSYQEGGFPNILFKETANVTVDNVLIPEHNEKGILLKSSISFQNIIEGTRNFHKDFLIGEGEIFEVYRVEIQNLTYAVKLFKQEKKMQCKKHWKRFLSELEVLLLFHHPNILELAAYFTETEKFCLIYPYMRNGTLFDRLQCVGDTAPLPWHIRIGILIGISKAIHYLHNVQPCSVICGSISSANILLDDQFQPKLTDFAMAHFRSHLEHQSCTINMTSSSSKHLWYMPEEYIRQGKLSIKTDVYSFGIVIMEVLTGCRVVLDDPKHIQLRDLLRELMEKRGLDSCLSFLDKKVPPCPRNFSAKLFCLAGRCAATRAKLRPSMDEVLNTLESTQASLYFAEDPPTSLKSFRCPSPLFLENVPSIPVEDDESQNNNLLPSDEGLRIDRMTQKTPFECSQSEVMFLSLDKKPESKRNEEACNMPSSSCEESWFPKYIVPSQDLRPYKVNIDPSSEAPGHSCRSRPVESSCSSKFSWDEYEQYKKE
Sequence of UniProt O75460 (whole entry, looked up): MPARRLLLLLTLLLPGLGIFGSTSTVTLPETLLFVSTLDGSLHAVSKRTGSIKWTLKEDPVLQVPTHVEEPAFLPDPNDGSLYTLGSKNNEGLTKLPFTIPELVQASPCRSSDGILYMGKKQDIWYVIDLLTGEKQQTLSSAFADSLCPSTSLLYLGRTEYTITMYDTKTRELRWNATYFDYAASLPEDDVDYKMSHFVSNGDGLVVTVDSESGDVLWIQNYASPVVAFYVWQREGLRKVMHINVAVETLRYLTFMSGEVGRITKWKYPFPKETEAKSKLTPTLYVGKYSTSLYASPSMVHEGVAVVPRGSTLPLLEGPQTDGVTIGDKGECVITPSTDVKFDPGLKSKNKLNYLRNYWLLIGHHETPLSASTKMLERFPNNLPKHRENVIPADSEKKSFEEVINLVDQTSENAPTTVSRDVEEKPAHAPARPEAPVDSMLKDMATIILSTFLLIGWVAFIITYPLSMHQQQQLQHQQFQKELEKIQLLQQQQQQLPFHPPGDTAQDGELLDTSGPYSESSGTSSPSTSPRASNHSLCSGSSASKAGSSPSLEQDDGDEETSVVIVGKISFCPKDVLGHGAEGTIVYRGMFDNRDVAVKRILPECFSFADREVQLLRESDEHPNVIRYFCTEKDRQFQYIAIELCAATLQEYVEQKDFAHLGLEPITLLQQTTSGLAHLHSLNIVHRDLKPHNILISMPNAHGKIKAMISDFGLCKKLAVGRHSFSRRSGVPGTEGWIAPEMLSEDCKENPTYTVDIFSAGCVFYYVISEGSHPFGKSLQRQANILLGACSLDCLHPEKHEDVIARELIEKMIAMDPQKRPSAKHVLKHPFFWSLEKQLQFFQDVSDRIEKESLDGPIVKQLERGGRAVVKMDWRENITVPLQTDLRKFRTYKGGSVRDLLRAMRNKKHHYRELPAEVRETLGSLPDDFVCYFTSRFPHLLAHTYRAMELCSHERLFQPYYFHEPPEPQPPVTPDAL
Sequence of UniProt P53778 (whole entry, looked up): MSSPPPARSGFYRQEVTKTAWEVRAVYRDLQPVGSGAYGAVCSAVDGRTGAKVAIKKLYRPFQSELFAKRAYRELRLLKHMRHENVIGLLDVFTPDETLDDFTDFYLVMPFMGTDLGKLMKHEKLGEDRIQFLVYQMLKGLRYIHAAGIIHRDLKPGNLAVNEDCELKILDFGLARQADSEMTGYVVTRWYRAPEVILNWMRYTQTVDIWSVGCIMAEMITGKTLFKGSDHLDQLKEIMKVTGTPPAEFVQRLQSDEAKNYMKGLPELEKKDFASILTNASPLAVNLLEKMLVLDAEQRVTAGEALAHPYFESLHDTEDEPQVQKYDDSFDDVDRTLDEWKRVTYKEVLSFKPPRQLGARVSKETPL
Sequence of UniProt Q9Y243 (whole entry, looked up): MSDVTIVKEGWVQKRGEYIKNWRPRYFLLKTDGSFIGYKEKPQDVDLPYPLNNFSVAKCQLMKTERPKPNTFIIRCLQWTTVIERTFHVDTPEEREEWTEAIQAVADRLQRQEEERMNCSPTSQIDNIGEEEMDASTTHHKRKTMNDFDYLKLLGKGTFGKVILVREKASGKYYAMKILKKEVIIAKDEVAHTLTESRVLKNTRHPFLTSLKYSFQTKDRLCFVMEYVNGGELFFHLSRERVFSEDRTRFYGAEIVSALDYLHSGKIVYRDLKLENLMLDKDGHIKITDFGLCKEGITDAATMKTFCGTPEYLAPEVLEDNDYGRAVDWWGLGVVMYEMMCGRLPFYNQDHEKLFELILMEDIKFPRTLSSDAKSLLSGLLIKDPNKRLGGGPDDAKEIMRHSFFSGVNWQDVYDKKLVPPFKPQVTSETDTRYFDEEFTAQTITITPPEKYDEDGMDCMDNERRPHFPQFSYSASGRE
Sequence of UniProt O15146 (whole entry, looked up): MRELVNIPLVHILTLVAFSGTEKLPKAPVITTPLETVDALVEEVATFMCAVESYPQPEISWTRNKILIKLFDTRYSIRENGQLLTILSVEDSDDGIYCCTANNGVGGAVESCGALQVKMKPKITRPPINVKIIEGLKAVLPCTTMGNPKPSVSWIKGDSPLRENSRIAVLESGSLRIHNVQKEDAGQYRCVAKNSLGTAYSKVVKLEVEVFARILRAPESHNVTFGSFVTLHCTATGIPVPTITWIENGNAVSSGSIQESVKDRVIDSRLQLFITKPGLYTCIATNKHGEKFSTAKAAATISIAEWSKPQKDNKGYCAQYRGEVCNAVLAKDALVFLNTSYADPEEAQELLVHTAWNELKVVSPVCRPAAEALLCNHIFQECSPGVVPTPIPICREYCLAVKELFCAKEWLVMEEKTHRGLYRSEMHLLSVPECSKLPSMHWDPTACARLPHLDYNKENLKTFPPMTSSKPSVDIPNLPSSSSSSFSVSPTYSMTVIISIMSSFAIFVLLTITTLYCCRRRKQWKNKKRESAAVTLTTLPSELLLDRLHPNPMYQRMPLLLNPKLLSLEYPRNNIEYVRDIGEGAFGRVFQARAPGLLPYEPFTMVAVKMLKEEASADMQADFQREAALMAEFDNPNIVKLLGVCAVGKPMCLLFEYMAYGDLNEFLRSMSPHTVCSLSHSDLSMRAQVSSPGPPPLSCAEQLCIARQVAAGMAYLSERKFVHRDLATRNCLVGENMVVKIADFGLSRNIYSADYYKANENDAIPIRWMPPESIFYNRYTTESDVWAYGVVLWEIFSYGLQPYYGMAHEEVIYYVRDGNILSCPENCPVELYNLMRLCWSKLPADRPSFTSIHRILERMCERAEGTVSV
Sequence of UniProt Q04759 (whole entry, looked up): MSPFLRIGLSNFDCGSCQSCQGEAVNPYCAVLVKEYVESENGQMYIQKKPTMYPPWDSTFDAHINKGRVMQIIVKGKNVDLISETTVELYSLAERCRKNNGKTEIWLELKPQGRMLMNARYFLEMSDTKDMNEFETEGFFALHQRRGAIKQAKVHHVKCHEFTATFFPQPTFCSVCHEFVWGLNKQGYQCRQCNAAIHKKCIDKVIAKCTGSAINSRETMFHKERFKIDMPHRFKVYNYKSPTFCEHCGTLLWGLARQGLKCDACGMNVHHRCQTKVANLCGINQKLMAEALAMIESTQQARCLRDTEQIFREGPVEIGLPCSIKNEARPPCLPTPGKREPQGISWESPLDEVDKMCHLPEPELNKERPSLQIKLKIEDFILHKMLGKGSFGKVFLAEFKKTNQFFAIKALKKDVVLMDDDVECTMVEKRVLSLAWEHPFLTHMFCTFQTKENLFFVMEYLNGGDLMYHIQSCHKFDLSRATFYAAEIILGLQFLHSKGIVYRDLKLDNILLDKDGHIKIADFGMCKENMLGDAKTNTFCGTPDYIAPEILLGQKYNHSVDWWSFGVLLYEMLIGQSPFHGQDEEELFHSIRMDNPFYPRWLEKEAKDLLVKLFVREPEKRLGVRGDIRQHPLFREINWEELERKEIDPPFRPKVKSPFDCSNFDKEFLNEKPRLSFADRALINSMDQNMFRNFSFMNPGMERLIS
Sequence of UniProt Q9Y2H1 (whole entry, looked up): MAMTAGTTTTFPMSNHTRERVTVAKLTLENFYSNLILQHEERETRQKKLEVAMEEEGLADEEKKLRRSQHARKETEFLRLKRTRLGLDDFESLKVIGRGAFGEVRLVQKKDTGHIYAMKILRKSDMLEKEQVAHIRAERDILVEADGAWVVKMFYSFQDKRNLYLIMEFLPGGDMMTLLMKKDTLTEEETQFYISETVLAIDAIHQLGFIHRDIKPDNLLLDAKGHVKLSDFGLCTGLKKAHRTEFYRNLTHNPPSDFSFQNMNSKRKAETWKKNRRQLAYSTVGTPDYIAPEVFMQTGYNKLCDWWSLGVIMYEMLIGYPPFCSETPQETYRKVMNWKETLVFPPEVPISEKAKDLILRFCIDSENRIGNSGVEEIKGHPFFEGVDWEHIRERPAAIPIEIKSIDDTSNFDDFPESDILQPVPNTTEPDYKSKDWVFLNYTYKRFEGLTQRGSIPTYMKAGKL
Sequence of UniProt Q96GD4 (whole entry, looked up): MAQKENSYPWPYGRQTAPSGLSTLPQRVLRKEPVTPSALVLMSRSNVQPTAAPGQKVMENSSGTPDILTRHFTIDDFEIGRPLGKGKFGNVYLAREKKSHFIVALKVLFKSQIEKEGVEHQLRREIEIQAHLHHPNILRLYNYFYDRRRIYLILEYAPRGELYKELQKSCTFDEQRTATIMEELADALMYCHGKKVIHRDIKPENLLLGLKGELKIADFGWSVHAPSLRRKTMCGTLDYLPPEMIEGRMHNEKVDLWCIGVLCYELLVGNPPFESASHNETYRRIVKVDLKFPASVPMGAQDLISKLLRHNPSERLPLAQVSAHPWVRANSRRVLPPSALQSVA

Set 1
Cell line: mouse MPNST tumor cells
Method: high-content nuclear imaging
Measured: cell number
Tested at: 10 µM
Time: 12 h
Notes: mean of 2 replicates
Relative to: plate mean
Reading: higher = more cells
Structure (SMILES)	nuclei count
Cc1ccc(NC(=O)Nc2cc(C(F)(F)F)ccc2F)cc1Nc1ccc2c(c1)NC(=O)/C2=C\c1ccc[nH]1	1.25 z-score
C[C@H](N=C(NC#N)Nc1cccc2ncccc12)c1ccccc1	3.93 z-score
Cc1ccc(S(=O)(=O)Nc2ccc3c(c2)c(C(=O)C(F)(F)F)cn3CC(=O)N[C@@H](CC(C)C)C(=O)O)cc1	0.69 z-score

Set 2
Compound: COc1ccc(-c2c(Nc3ccccn3)[nH]c3c(C4=CCCCC4)c(-c4ccccc4)nn3c2=O)cc1
Species: human patients
Sample: plasma
assay	setting	median concentration [ng/mL]
measured: methionine	150 mg once daily, 2 h	96600
measured: S-adenosylmethionine	150 mg once daily, 4 h	18.1
measured: S-adenosylmethionine	200 mg once daily, 6 h	13.5
measured: methionine	400 mg once daily, 6 h	89200

Set 3
Cell line: HaCaT
Tested at: 100 µM
Time: 36 h
SMILES	viability [%]
Nc1nc2c(ncn2COCCO)c(=O)[nH]1	94.5
COc1ccc(/C=C/C(=O)Nc2ccccc2C(=O)O)cc1OC	34.9
C=CC(=O)N1CCC[C@@H](n2nc(-c3ccc(Oc4ccccc4)cc3)c3c(N)ncnc32)C1	5.96

Set 4
SMILES: C[C@@H](c1cccc(C#N)c1)n1cc(Cl)cc(C(N)=O)c1=N
Method: competition with immobilised ligand
Tested at: 1 µM
target	assay	remaining binding [%]
Protein kinase C theta type (PRKCQ, Homo sapiens, UniProt Q04759)	cell-free assay	86
Serine/threonine-protein kinase/endoribonuclease IRE1 (ERN1, Homo sapiens, UniProt O75460)	cell-free assay	76
Muscle, skeletal receptor tyrosine-protein kinase (MUSK, Homo sapiens, UniProt O15146)	cell-free assay	100
Homeodomain-interacting protein kinase 3 (HIPK3, Homo sapiens, UniProt Q9H422)	cell-free assay	70
Serine/threonine-protein kinase 38-like (STK38L, Homo sapiens, UniProt Q9Y2H1)	binding	85
Serine/threonine-protein kinase Nek3 (NEK3, Homo sapiens, UniProt P51956)	cell-free assay	44
Macrophage colony-stimulating factor 1 receptor, autoinhibited (CSF1R, Homo sapiens, UniProt P07333)	cell-free assay	96
Epidermal growth factor receptor (EGFR, Homo sapiens, UniProt P00533, del747-750/T751S)	cell-free assay	100
Aurora kinase B (AURKB, Homo sapiens, UniProt Q96GD4)	cell-free assay	100
Serine/threonine-protein kinase LATS1 (LATS1, Homo sapiens, UniProt O95835)	cell-free assay	69
Receptor-interacting serine/threonine-protein kinase 4 (RIPK4, Homo sapiens, UniProt P57078)	cell-free assay	57
Mitogen-activated protein kinase 12 (MAPK12, Homo sapiens, UniProt P53778)	cell-free assay	73
Casein kinase II subunit alpha (CSNK2A1, Homo sapiens, UniProt P68400)	cell-free assay	72
Serine/threonine-protein kinase DCLK2 (DCLK2, Homo sapiens, UniProt Q8N568)	cell-free assay	90
Interleukin-1 receptor-associated kinase 3 (IRAK3, Homo sapiens, UniProt Q9Y616)	cell-free assay	99
Casein kinase I isoform alpha-like (CSNK1A1L, Homo sapiens, UniProt Q8N752)	cell-free assay	82

Set 5
Species: human
Sample: microsomes or S9
Tested at: 2 µM
Time: 0.5 h
SMILES	remaining compound [%]
Cc1cc(C)n2c(CN3CCN(C)C[C@@H]3C(C)C)cnc2n1	98.3
O=C(c1ccc2nncn2c1)N1CC(c2ccccc2)C2(CCC2)C1 (centres unmarked)	93.2
O=S1(=O)N=C(Nc2cccc3[nH]ccc23)c2ccccc21	73.1
CN(C)S(=O)(=O)c1cc(C(=O)NCC(c2ccccc2)N2CCOCC2)c(Cl)cc1Cl (centres unmarked)	1.22

Mixed results
SMILES	target or system	assay	system	setting	endpoint	result
COc1cc(C(=O)OCCCN2CCCN(CCCOC(=O)c3cc(OC)c(OC)c(OC)c3)CC2)cc(OC)c1OC		electrocardiography	mouse	intraperitoneal, 10 mg/kg, before dosing	heart rate	594 beats/min and 588 beats/min and 598 beats/min
CCN(CC)CCCCN1c2ccccc2Oc2ccc(Cl)cc21	RAC-gamma serine/threonine-protein kinase (AKT3, Homo sapiens, UniProt Q9Y243)	enzyme activity, inhibitor, radiometric			IC50	> 30 µM

Excerpt of the above (set 4):
target	assay	remaining binding [%]
Aurora kinase B (AURKB, Homo sapiens, UniProt Q96GD4)	cell-free assay	100
Macrophage colony-stimulating factor 1 receptor, autoinhibited (CSF1R, Homo sapiens, UniProt P07333)	cell-free assay	96
Serine/threonine-protein kinase 38-like (STK38L, Homo sapiens, UniProt Q9Y2H1)	binding	85
Homeodomain-interacting protein kinase 3 (HIPK3, Homo sapiens, UniProt Q9H422)	cell-free assay	70
